{"data": "Published values pooled from the literature", "G3BP1 C-terminal RGG region": "Ras GTPase-activating protein-binding protein 1, C-terminal RGG region (G3BP1, Homo sapiens, UniProt Q13283)", "RBFOX2 RRM domain, GST-SBP tag": "RNA binding protein fox-1 homolog 2, RRM domain, GST-SBP tag (RBFOX2, Homo sapiens, UniProt O43251-10, residues 100-194)", "note": "Compare with care: the assays were run in different laboratories.", "UniProt Q13283, sequence (whole entry, looked up)": "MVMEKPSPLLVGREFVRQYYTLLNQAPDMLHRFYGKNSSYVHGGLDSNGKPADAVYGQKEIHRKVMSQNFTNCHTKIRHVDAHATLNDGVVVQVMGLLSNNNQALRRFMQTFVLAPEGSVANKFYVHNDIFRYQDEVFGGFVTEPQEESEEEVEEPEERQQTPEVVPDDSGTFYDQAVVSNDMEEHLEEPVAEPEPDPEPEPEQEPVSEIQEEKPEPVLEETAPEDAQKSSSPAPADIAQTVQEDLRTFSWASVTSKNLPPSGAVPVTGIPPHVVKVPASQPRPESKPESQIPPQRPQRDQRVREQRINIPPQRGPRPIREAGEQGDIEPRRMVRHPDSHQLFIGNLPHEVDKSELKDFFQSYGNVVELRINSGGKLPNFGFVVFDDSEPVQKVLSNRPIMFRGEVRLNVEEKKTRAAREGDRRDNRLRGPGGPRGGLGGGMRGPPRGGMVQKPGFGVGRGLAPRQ"}
{"Molecule": "PhoQ, residues 284 288 289 292 302 303 QWGLFV", "target": "PhoP, residues 12 14 15 18 19 TTLRV (Escherichia coli, UniProt P23836)", "assay": "Sort-seq, refers to: YFP reporter", "test system": "E. coli", "conditions": "PhoQ-PhoP variant library, added: 10 µM Mg2+", "how to read": "relative to: high Mg2+ state, higher = stronger signaling", "endpoint": "fold induction", "result": 5.16}
{"Molecule": "CGCACGCG", "target": "Protein max, full length (MAX, Homo sapiens, UniProt P61244-2, residues 1-151)", "assay": "protein-binding microarray", "test system": "double-stranded DNA, one strand shown, in vitro", "conditions": "not given, k-mer, scored over probes, only values ≥0.25", "how to read": "higher = stronger binding", "endpoint": "E-score", "result": 0.447}
{"Molecule": "GGGAGUUCUACAGUCCGACGAUCCCUCAAGUCCUGUGCUACACAUCGUAUGUACCGAAUCGGGUGGUGGGUGGGGAAAGUAUUAUGUUACGCCGUUCGGAUCUGCACUUCCAGUGGAAUUCUCGGGUGUCAAGG", "target": "G3BP1 C-terminal RGG region", "assay": "RNA Bind-n-Seq", "test system": "RNA, in vitro", "conditions": "1 µM, whole 134-nt RNA, ends assumed, added: 150 mM KCl", "how to read": "relative to: input library, higher = stronger binding", "endpoint": "log2 enrichment", "result": 0.77}
{"Molecule": "GCCTAGCACTCATGTCAACTTTCTCTGACTGTGCTAGTCTTGATTCGCTTGACGCTGCTG", "target": "Interferon regulatory factor 5, full length, phosphomimetic (IRF5, Homo sapiens, UniProt Q13568-2, residues 1-514, K96S/S451D/S453D/S456D/S462D)", "assay": "protein-binding microarray", "test system": "double-stranded DNA, one strand shown, in vitro", "conditions": "250 nM, 60-bp whole probe, added: salmon DNA 0.4 mg/ml", "how to read": "relative to: random background probes, higher = stronger binding", "endpoint": "log fluorescence", "result": "1.04 z-score"}
{"Molecule": "GGGAGUUCUACAGUCCGACGAUCAGGAGCUGAACCUUAUUAGGUUGGAUGUCGAUCAGGAACCUGUUUGCCCUUUGCUGGGAAGCCUUCACUCUCCAGCUUUCCUGGGGUAGGGAAGGUCUCCCACAUUAUGCUGGAAUUCUCGGGUGCCAA", "target": "RBFOX2 RRM domain, GST-SBP tag", "assay": "RNA Bind-n-Seq", "test system": "RNA, in vitro", "conditions": "365 nM, natural RNA segment, single round, ends assumed", "how to read": "relative to: no-protein control, higher = stronger binding", "endpoint": "RBNS enrichment (R)", "result": 0.293}
{"Molecule": "GGGAGUUCUACAGUCCGACGAUCUCCUGUGCUACACAUCGUAUGUACCGAAUCAAAUUUUUUUAAACCCAAACCCCCCCAAAAAAGUAUUAUGUUACGCCGUUCGGAUCUGCAUGGAAUUCUCGGGUGUCAAGG", "target": "G3BP1 C-terminal RGG region", "assay": "RNA Bind-n-Seq", "test system": "RNA, in vitro", "conditions": "1 µM, whole 134-nt RNA, ends assumed, added: 150 mM KCl", "how to read": "relative to: input library, higher = stronger binding", "endpoint": "log2 enrichment", "result": -0.807}
{"Molecule": "GGGAGUUCUACAGUCCGACGAUCCCCCCAUCCUAAUCAGAGUCAGCACAGCUUUCCUGUCAGAGGAUAGGAACACUUGCUCUUUGAGCCCCGUGACCGACAGUGACCAGGGAUUGGCAUUCUUGGAUUGGCAUUGGAAUUCUCGGGUGCCAA", "target": "RBFOX2 RRM domain, GST-SBP tag", "assay": "RNA Bind-n-Seq", "test system": "RNA, in vitro", "conditions": "365 nM, natural RNA segment, single round, ends assumed", "how to read": "relative to: no-protein control, higher = stronger binding", "endpoint": "RBNS enrichment (R)", "result": 0.299}
{"Molecule": "GCAGAAAC", "target": "Histone acetyltransferase KAT6A, winged helix 1, GST fusion (KAT6A, Homo sapiens, UniProt Q92794, residues 1-85)", "assay": "protein binding microarray", "test system": "double-stranded DNA, one strand shown, in vitro", "conditions": "not given, 8-mer, flanks averaged, mean of 2 arrays, mostly near background", "how to read": "relative to: not given, higher = stronger binding", "endpoint": "E-score", "result": -0.00745}
